Published values from different studies.
Parts stem from different laboratories: compare values within a part only.

Set 1 — technique: universal PBM; form: double-stranded DNA, one strand shown; matrix: in vitro; tested at: 600 nM; reading: higher = stronger binding
Target: Sal-like protein 4, full length isoform A (SALL4, Homo sapiens, UniProt Q9UJQ4, residues 1-1053)
UniProt Q9UJQ4, sequence (whole entry, looked up): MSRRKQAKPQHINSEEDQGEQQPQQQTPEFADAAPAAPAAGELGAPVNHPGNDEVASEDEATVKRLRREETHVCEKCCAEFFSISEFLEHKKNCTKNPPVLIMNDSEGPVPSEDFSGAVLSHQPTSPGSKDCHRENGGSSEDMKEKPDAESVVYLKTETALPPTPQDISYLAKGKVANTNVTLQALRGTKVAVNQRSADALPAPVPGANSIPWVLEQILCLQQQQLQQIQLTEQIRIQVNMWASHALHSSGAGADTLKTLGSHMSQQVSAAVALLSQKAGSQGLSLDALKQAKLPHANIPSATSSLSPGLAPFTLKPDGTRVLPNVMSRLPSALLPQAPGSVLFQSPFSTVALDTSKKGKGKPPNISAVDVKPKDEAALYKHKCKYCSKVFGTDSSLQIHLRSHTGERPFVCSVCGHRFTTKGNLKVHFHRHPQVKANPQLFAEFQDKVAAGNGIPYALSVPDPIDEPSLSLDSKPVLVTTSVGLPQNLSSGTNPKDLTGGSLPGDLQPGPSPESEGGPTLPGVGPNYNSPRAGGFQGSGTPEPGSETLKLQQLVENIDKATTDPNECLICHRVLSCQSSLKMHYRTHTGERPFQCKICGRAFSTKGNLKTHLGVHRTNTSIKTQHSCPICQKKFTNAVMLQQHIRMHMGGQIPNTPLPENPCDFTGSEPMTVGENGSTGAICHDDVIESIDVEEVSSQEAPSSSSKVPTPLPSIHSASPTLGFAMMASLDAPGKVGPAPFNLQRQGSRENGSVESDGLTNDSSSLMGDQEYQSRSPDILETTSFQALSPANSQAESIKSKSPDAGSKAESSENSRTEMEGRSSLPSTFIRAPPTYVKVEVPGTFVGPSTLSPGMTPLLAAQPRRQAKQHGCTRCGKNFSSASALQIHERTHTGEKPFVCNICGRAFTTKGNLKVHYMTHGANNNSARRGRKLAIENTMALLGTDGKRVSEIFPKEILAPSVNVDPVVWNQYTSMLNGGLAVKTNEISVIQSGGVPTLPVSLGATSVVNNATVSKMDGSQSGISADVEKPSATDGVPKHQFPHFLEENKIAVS
Notes: 8-mer, flanks averaged, mean of replicates
| Strand | E-score |
| --- | --- |
| CAGCACCA | -0.194 |
| GAAGGGGC | -0.289 |
| ATGGGAAT | 0.0832 |
| AAAATTAC | 0.359 |
| GCTCTAGA | -0.202 |
| GGGTCTAC | -0.162 |
| TCAAGCAA | 0.079 |
| CTCCTGCC | -0.131 |
| AAGGGCTA | -0.118 |
| GCGTTCCC | -0.254 |
| TGCATGAA | 0.182 |
| CGATGCCG | -0.314 |
| AAATCTCT | 0.183 |
| CTCAGTCA | -0.121 |
| CTGCACCC | -0.275 |
| TCTCCCAA | -0.016 |
| AGATCCAT | -0.0282 |
| GCGCGTAC | -0.109 |
| GTGGGCAA | -0.0975 |
| CAGGGTTC | -0.291 |
| CAAAATAG | 0.15 |
| AGATCCGC | -0.198 |
| CCATTTAA | 0.231 |
| ATGATCGC | 0.0881 |
| GCAGCGCC | -0.269 |

Set 2 — technique: RNA Bind-n-Seq; form: RNA; matrix: in vitro; tested at: not given; relative to: input RNA pool; reading: higher = stronger binding
Target: RING finger protein unkempt homolog, zinc fingers 1-6, GST-SBP tag (UNK, Homo sapiens, UniProt Q9C0B0, residues 30-357)
UniProt Q9C0B0, sequence (30-357, looked up): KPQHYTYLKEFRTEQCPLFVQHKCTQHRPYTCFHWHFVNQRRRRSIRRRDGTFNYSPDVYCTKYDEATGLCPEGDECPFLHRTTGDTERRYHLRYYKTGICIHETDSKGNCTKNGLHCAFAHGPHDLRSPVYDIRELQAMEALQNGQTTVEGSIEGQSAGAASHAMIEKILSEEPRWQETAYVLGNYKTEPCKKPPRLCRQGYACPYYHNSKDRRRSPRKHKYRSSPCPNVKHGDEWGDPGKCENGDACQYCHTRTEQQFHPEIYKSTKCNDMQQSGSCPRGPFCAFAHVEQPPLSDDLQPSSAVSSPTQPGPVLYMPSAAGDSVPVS
Notes: RNA with constant flanks, human and mouse sites, ends assumed
Constant ends, left off below: GGGAGUUCUACAGUCCGACGAUC … CAACAGAGGAUUGAGCAUCA
| Strand | bound/input enrichment [ratio] |
| --- | --- |
| GUCUGUUUACUAGAUGAAAAGCUACAAGCAAUUGCAGAGAAUUUGGGUUCAAUUCUUUUUUUUUUUUUUUACACGUAUUUUCCUCAAAUUACAUUUCCAAUGCUAUCUCAAAAGUCCCCC | 1.65 |
| GGACAGGGAUUUUUGUAAGUCUAUAUUUGAAAGUCCCUCCAUAUGGUAAUAUUGUGUUCAUGUUGUAUAUGUAGUGUUGUGUGAAAUAUCCAUUUUGGAUUGUGUUACUUUUUAAGAUAU | 0.603 |
| UUGAUUGACCAGAAAGUGUAUGAGCUACAGGCCAGUCGUGUCUCCAGUGAUGUCAUUGACCAGAAGGUGUAUGAGAUCCAGGACAUCUAUGAGAACAGCUGGACCAAGCUGACUGAAAGA | 0.148 |
| AUACAGCCUGUGCAACUGCGAGUAUUAAAUGUAUGUCGGCACUGGGUAGAGCACCACUUCUAUGAUUUUGAAAGAGAUGCAUAUCUUUUGCAACGAAUGGAAGAAUUUAUUGGAACAGUA | 0.125 |
| CAUGUUAAAGAGCAUCACUUUGGGUCCUCAGGAAUGACAUUACAUGAACGCUUUACUAAAUACCUAAAGAGAGGAACUGAGCAGGAGGCAGCCAAAAACAAGAAAAGCCCAGAGAUACAC | 0.407 |
| GAGGUUACCGUGGAAACAGACAAGAAAACUCAUUAUGGGCUACUCUUUGAUGAAUUUCAAGGCCUUUCACAUCUAGAAGCUCUGGAGAUGCUUUCCCAAGAAAGUGAAAUAAAGGUGAAA | 0.336 |
| CGGCAUUCUACACCUUUACAUUUGGCAGCUGGUUAUAAUAACUUGGAAGUUGCUGAGUAUUUAUUGCAACAUGGAGCUGAUGUGAAUGCCCAGGACAAAGGAGGACUCAUUCCUUUACAU | 0.152 |
| AAAAUUGAUUGUUAUUUACUCCCAGAUCCUCUUGCAGACCCAGAAUUAUCAGGAACAUAGCUCUGUGAUUCAUGAGUGUCCCCAUACUGAUGAAUUGGAGCAUCCAUAUGGAAAGCAAAG | 0.18 |

Set 3 — technique: aptamer microarray, sandwich; form: DNA with 2'F-ANA; matrix: in vitro; tested at: 200 nM; together with: Cy3 exosite-II aptamer, 400 nM; reading: higher = stronger binding; strand: GGTTGGTGTGGTTGG
Target: Prothrombin, mature alpha-thrombin (F2, Homo sapiens, UniProt P00734)
Notes: whole 15-mer aptamer, many near background
| Modification | mean fluorescence intensity [a.u.] |
| --- | --- |
| 2'F-ANA at 1 2 3 4 7 12 14 15 | 80.6 |
| 2'F-ANA at 1 2 3 4 5 6 7 8 13 | 56.3 |
| 2'F-ANA at 1 4 10 11 13 14 | 67.2 |
| 2'F-ANA at 1 2 4 5 6 7 10 14 | 46.6 |
| 2'F-ANA at 2 3 5 7 8 9 10 12 | 83.4 |
| 2'F-ANA at 2 3 5 8 10 11 12 13 15 | 57.1 |
| 2'F-ANA at 3 4 5 6 7 8 10 14 15 | 45.4 |
| 2'F-ANA at 2 3 4 5 6 7 8 9 10 12 15 | 61.1 |
| 2'F-ANA at 1 2 4 5 7 8 9 11 12 13 14 | 45.8 |
| 2'F-ANA at 3 4 6 7 9 12 13 14 15 | 233 |
| 2'F-ANA at 3 10 11 13 14 | 512 |
| 2'F-ANA at 2 5 7 8 9 12 | 178 |
| 2'F-ANA at 1 2 9 12 13 | 305 |
| 2'F-ANA at 2 4 5 6 11 12 14 | 45.1 |
| 2'F-ANA at 1 3 6 7 8 9 10 12 13 | 102 |
| 2'F-ANA at 2 8 10 12 13 15 | 152 |
| 2'F-ANA at 2 4 6 7 10 12 13 | 92.4 |
| 2'F-ANA at 3 4 5 6 7 8 9 10 11 12 15 | 66.2 |
| 2'F-ANA at 1 2 6 10 12 13 | 62.3 |
| 2'F-ANA at 2 4 8 12 13 14 | 137 |
| 2'F-ANA at 1 3 9 12 | 620 |
| 2'F-ANA at 2 3 7 8 10 12 14 15 | 339 |
| 2'F-ANA at 1 2 3 5 7 8 11 12 14 15 | 46.3 |
| 2'F-ANA at 4 7 8 9 10 12 13 14 15 | 84.9 |
| 2'F-ANA at 3 10 14 | 558 |

Set 4 — technique: RNA Bind-n-Seq; form: RNA; matrix: in vitro; tested at: 365 nM; relative to: no-protein control; reading: higher = stronger binding
Target: RNA binding protein fox-1 homolog 2, RRM domain, GST-SBP tag (RBFOX2, Homo sapiens, UniProt O43251-10, residues 100-194)
Notes: natural RNA segment, single round, ends assumed
Constant ends, left off below: GGGAGUUCUACAGUCCGACGAUC … UGGAAUUCUCGGGUGCCAA
Construct (chain): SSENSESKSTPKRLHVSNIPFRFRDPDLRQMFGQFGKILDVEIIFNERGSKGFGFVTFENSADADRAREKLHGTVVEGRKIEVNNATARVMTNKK
| Strand | RBNS enrichment (R) |
| --- | --- |
| GACCAAAAGUCCCCAGUGACACCAACACAAAGCUCGCAGUUCCGUUUCCUUCUCGUUCCUAUUCUCCGUCCUCCACAUGCAGUCCUUUGCUCAGGAAGUCUUUGGGGAAA | 0.513 |
| UUGUGGGGUGACGAGGGGUGUAGAAUACCCCGAACCCUCUUCCAGGACAAAGCCAGGAGUGGAGCUGAGGAAGACUAAGGUAGAAACUCUGUGCCCAAGCUGACACAGAA | 0.471 |
| UACGAGUCCACAUGGAUAAAAUGUUAGAGAGUGGAGUUCUACAGAGGAUUCCAGGAAGAGGCCAUGUCUGUGCAGUCCUAGUUCCAGACAGGUGAGAAGCUCCAGGAACU | 0.33 |
| ACAUCCUCACUUUUAUUAUAAAUGGGUGUUUUUUCAUAAUUUUUACUGACGCUCAGUAACCAUGCAAAAUUGUGUAUAGCAUUAAUGUAUCUACAUACCUACACCUAUCU | 0.99 |
| AUGUCAUUAACUACCCCUCUCUGUUUUUACCCCUCUACCUUUGCAGGACCCGGGUCAUGGGUCAGUGUUAGUGGUAGCGUGCUCUCAUUCGCUUGGAAGUGGUGGCCAUG | 0.313 |
| AUGACAGCUGAUGUUAAACUUUUCAUAUUUCAAAUUAGAUUCCCUAGGAGGUAUAAUAUAUAUUUCUUGAGUAAUAAUGUGGUUACGGAAUUCCAAUGUUAUAGUGAAGU | 1.02 |
| CUGAAUGGUUUGUGAACUUGCUCACCUGGACCACUGUAUCCUGCCACUGUCCUUCCUGGUCUCGCACUGCCACUGCAUGGCCUCCUGUCACUGUGAAUCGUGGCCCAGUC | 2.14 |
| UCGAUGUGUGUGAUAUUCAGAGACUGGAGGAGCUGCUGACAUUAUCCUGUGUUUAGAUGCUUUAAUGUUCAUAAAGCCUGUCUUGUGACUGGACUGUCAGCUGUCCAACU | 0.498 |

Further values, each from its own experiment — organism: Saccharomyces cerevisiae; observed: binding; technique: competitive growth deep sequencing; form: peptide; strain: cyclin E1-Cln2 fusion strain; tested at: concentration not given; reading: direction not given
| Molecule | notes | growth enrichment score |
| --- | --- | --- |
| PSSMRKICTYFHR | peptide library 2 | 1.3 |
| APPRKALFTYPKG | Cln2 score subtracted | 0.278 |
